Measurements gathered from unrelated publications.
Every numbered part comes from another study and shows a few of its results, in no order.

Block 1 — method: RNA Bind-n-Seq; form: RNA; medium: in vitro; tested at: 1 µM; setting: whole 134-nt RNA, ends assumed; with: 150 mM KCl; baseline: input library; reading: higher = stronger binding
Target: Ras GTPase-activating protein-binding protein 1, C-terminal RGG region (G3BP1, Homo sapiens, UniProt Q13283)
UniProt Q13283, sequence (whole entry, looked up): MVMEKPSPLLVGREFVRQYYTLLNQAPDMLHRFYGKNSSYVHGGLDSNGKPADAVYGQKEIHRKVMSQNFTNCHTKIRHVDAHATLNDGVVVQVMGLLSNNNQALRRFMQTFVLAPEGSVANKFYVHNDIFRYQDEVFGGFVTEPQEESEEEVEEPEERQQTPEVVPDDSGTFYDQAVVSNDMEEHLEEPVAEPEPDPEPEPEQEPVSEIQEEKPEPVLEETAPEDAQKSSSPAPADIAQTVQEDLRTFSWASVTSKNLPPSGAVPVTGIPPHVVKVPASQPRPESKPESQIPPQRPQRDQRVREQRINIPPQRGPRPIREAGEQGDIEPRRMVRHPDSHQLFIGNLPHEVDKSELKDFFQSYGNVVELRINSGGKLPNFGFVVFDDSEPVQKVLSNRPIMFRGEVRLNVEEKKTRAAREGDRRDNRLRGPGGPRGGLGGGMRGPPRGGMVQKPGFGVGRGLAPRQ
Constant ends, left off below: GGGAGUUCUACAGUCCGACGAUC … UGGAAUUCUCGGGUGUCAAGG
Sequence	log2 enrichment
CCUGUGCUACACAUCGUAUGUACCGAAUCGGGGUUUUUUGGUUUUUUGGGGUUUUUUGGGGAAAGUAUUAUGUUACGCCGUUCGGAUCUG	-1.38
AAGGCACGUAAGUUUAAGCUUUUUUUUUUUUUAAGUUAAUGGGAAAAAUUUGAGACGCAAUACCAAUACUUAGGAUUUUGGUCUUGGUGU	-1.4
GUCCUGUGCUACACAUCGUAUGUACCGAAUCGGGUUUUUUGGUUUUUUGGGUUUUUUGGAAAGUAUUAUGUUACGCCGUUCGGAUCUGCA	-1.58
CACAGACAACACGCACCCACACAGAGACAGAGGGAAGGGGUUGGGAUGGGGACAGGGUGCACAGCAGGGCGGGGUAGGACCCCAGCCCCU	-0.202
UCAAGUCCUGUGCUACACAUCGUAUGUACCGAAUCGGAAAAAAAGGUGGAAAGGAAAGUAUUAUGUUACGCCGUUCGGAUCUGCACUUCC	-1.41
CCUGUGCUACACAUCGUAUGUACCGAAUCGGGGUUUUUGGGGAAAGGGGAAAAAAAGGGGAAAGUAUUAUGUUACGCCGUUCGGAUCUGC	0.165
UCCUGUGCUACACAUCGUAUGUACCGAAUCGGGUUUUUGGGUUUUUGGGGUUUUUGGGGAAAGUAUUAUGUUACGCCGUUCGGAUCUGCA	0.294
ACCAUGCAGGUGGGCAUCUUUGGGAAGUGGGGCAAGGGGGGGAUAGGGAGGGGGGGAACACUUUGGGAACAGGUGGUCCCAGGUCGUUUC	1.5
GGGACGUCAGCAUCGGCAUCAAGUGUGCCCCUGGAGUGGUAGGCCCCGCCGAAGCUGACAUCGACUUCGACAUCAUCCGCAAUGACAAUG	-2.12
GAAAUUGAACCAGCAGCGAUGAAAGCAGCAGCUGCUGCCCCUGCCUCAGAGGAUGAGGACGAUGAGGAUGACGAAGAUGAUGAGGAUGAC	-1.71

Block 2 — method: RNA Bind-n-Seq; form: RNA; medium: in vitro; tested at: 365 nM; baseline: no-protein control; reading: higher = stronger binding
Target: RNA binding protein fox-1 homolog 2, RRM domain, GST-SBP tag (RBFOX2, Homo sapiens, UniProt O43251-10, residues 100-194)
Setting: natural RNA segment, single round, ends assumed
Constant ends, left off below: GGGAGUUCUACAGUCCGACGAUC … UGGAAUUCUCGGGUGCCAA
Residues (chain): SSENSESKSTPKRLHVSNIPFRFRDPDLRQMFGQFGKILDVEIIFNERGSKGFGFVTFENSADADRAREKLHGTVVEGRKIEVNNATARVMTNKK
Sequence	RBNS enrichment (R)
CCGUCUCUGUCCAUGCACCUCGAUUCACGGCGAGACAUUUAGCCACCACUCUCUGCGUAUUGAUGGCAUGAUACGGUAUUGUCCUCGUAUAGAGUUAACAACUUACGAUA	0.471
AAAUCUGGCUGCCCGUUUACUUUCUGAGCAAGCACUGGAGUCCACUCCGACCUUUUUCUUUGAACAUGCAUGCUGCUGGAAUAUGUAUAAAUCAGAACUAGCAGAAGUAG	1.55
CUGUCAAUGGGGGUGUAGUAUUUUUGCCAAAAUAUCAUGUUCAAUUUCAGUAGUUUGAUCAGUUGAAGGCUAGAAGUGUGAAGUGCAGAUGAGUGUGUGUUCUUCCCCAA	2.78
GCCCCUGGAAAUUCGUGUGGCCUGUGAAGUGGUGUAUUGUAGUUUGAAUUUGAGACCUAUUGUAAGCAUGAUCCCUACCUACAACCCUAUUUUUACAUACCCAAUUCCAG	5.9
UCUCCUCUCCUCCUUGUCUGGCUCUGUUGACAAACCGGGCAUGUUUGGCAGUAAAUUGGCACCGUGUCACACUGUUUCCUGGGAUUCAAGUAUGCAACCAGAACACAGGA	1.42
AGAACCAGUGAGUGGUGAGAGCUCUGUCAGUGACAAACACUCCUUUGGCCUGUUGAAUUUGCUGAAGAACAUCACCUAAAGUCUGCACACGAGCCCAUUUUUACCAAGAU	0.213
CCCAGCUGUGGCGGGAGGUGCAGAGCAGAGGGCUUUAGGGAGCAGUGACUGCGGUCACCCCUUUAGUUCUCUGGGUGUAGACCACACCACCUCCCACUGGGCACCCCCCA	0.399
UGUGUGUGUGUACACAUAUCUGUGCCUGUGUGUCUUCCCUUGUGUCCAUAUUUAAUGUGUAAGAACAUCCCUACUCUAUCCCAGACACGACCAUUUCACCCAUUGCCCCA	0.742
GAACACCUACUGUGUGCCAGGCACUUUACAUCCCCCCCUCAGUGUCUACCUAGUCUGCUGGGCUGAUAGUGAAGCACCGAGGUUGAUGGACUUACAUUCCCAGUGUGCCU	0.483
GCCCAGUAAGUAUGACGGUCGUGUCGCCUAACCAACGCAGAGCAGUGCUUUUUGUGUGGCUGAAGCGAUGUGCUGACGAAAAAAGGAAAAUUCUAGGACAAUCGUUGGCU	0.251
GGACACUUCACUGCCAUUUUCUAUUCACAUAAAAGAAAAAUAAAUGUGGAAAUUUCAUCCUUGGAAAUGUGUUCUCUAUUCUUUUUAAAUUUUCUGUAUGUAUAUGGAAA	0.68
CUGACAGAAUCCUAAGACGUGAGUUGCUCAUUGUAAAACUAGAAUGUGAAGUGAAGUCACGGAACAAGAUGCUGCUGUUGGGACCUUGAGACCAAAAUUUCAGAGCCCUU	0.298

Block 3 — method: universal PBM; form: double-stranded DNA, one strand shown; medium: in vitro; tested at: 600 nM; reading: higher = stronger binding
Target: Sal-like protein 4, full length isoform A (SALL4, Homo sapiens, UniProt Q9UJQ4, residues 1-1053)
UniProt Q9UJQ4, sequence (whole entry, looked up): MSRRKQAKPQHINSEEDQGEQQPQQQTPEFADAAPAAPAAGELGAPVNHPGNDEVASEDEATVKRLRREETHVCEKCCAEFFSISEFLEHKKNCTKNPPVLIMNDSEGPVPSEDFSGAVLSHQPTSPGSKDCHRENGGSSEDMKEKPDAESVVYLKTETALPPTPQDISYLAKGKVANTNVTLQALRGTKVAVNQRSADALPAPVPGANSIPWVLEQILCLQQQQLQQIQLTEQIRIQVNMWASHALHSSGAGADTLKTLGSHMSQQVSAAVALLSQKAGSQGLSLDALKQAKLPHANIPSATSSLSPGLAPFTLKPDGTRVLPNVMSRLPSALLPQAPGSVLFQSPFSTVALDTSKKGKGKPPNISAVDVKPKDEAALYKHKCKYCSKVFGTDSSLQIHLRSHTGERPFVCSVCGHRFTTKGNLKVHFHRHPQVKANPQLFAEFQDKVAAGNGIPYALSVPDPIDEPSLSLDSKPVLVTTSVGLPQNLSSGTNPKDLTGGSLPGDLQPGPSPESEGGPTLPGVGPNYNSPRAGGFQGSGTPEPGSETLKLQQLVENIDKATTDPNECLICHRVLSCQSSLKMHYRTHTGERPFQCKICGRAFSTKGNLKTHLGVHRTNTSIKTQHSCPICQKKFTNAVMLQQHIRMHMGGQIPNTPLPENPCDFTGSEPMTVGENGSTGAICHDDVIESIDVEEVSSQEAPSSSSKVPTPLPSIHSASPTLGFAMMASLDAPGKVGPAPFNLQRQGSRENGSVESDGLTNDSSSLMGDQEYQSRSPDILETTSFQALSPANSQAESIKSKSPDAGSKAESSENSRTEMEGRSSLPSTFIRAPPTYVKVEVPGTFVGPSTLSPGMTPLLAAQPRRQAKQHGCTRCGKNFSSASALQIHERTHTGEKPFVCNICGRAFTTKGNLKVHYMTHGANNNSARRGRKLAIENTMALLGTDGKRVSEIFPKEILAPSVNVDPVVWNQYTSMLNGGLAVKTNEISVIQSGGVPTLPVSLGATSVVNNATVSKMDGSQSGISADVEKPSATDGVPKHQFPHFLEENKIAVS
Setting: 8-mer, flanks averaged, mean of replicates
Sequence	E-score
GATTCACC	-0.154
GCCAAACC	-0.176
AGTCCGTG	-0.273
AGGACAAC	0.0428
CCGACGAA	-0.00604
CTAGCGCA	-0.184
TTCCAGAA	0.139
CGAGGAAG	-0.172
CGGGAGTA	-0.103
CAGAGTAC	-0.0605
AACGAAAA	0.26
AGATTACT	0.205
ATGACCGA	0.117
TGGGGGAA	-0.122
CTAGGGAC	-0.101
CGCAACGC	-0.159
GATGAATC	0.0968
TAGGTGAA	0.0661
ATCAGCTC	0.0249

Block 4 — method: RNA Bind-n-Seq; form: RNA; medium: in vitro; tested at: 20 nM; setting: 6-mer, flanks averaged, single round; with: 150 mM LiCl; baseline: input library; reading: higher = stronger binding
Target: TAR DNA-binding protein 43, full length, His tag (TARDBP, Homo sapiens, UniProt Q13148, residues 1-414)
Sequence	6-mer enrichment (R)
GCCGCG	1.01
CCAAGA	0.822
ACGAUU	0.815
GGAAAU	0.942
GAUAGG	1.06
CUUGAC	1.07
CGAACC	0.829
AUGAUC	0.852
GUUAGC	0.972
ACCGGG	0.946
GUCUAU	0.949
ACAUCC	0.881
GAGUUU	1.08
UGGGGC	1.24
UGCAGC	0.963
AGCCGU	0.893
CCAUGU	0.993
GAAUUA	0.906
ACCUCG	0.817
AUACGG	0.879
ACUCGA	0.794
UGGCGA	1
AUAUAC	0.878
UGGCAG	1.05

Block 5 — method: protein binding microarray; form: double-stranded DNA, one strand shown; medium: in vitro; tested at: not given; baseline: not given; reading: higher = stronger binding
Target: Histone acetyltransferase KAT6A, both winged helices, GST fusion (KAT6A, Homo sapiens, UniProt Q92794, residues 1-181)
Setting: 8-mer, flanks averaged, mean of 2 arrays, mostly near background
Construct (chain): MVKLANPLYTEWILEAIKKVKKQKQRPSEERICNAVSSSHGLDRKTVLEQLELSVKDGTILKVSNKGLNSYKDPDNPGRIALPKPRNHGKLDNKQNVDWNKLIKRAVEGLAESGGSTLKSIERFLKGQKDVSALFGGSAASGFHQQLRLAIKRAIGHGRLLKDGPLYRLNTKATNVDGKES
Sequence	E-score
ACCATGTG	-0.103
AGCCTAAG	-0.157
ACAAGACC	0.00146
CAGGTGCA	-0.261
ACGAGTAC	-0.114
ATACGGTA	0.178
CAGCATAC	-0.0925
TAGCATAA	-0.0892
ACCTATAC	-0.029
CGTCAAGA	-0.0465
ATAGCGGC	0.272
GCTCATAC	0.0399
ATCCTTTC	0.0116
GTCTACAA	-0.0825
AAGCATCA	-0.0938
GGCTGGCA	-0.0771
CCGCCGGC	0.397
CGCTTGGA	0.13
GAGGACGA	-0.0815
GGCACCGA	0.0722
TCTCAGCA	-0.187
GGGTATAA	-0.0118
GCATGGCA	-0.0126
GAGACTGC	0.0791
CTAGGCCC	-0.0782

Repeated from above (block 2):
Sequence	RBNS enrichment (R)
GCCCAGUAAGUAUGACGGUCGUGUCGCCUAACCAACGCAGAGCAGUGCUUUUUGUGUGGCUGAAGCGAUGUGCUGACGAAAAAAGGAAAAUUCUAGGACAAUCGUUGGCU	0.251
GCCCCUGGAAAUUCGUGUGGCCUGUGAAGUGGUGUAUUGUAGUUUGAAUUUGAGACCUAUUGUAAGCAUGAUCCCUACCUACAACCCUAUUUUUACAUACCCAAUUCCAG	5.9
CUGUCAAUGGGGGUGUAGUAUUUUUGCCAAAAUAUCAUGUUCAAUUUCAGUAGUUUGAUCAGUUGAAGGCUAGAAGUGUGAAGUGCAGAUGAGUGUGUGUUCUUCCCCAA	2.78
UCUCCUCUCCUCCUUGUCUGGCUCUGUUGACAAACCGGGCAUGUUUGGCAGUAAAUUGGCACCGUGUCACACUGUUUCCUGGGAUUCAAGUAUGCAACCAGAACACAGGA	1.42
UGUGUGUGUGUACACAUAUCUGUGCCUGUGUGUCUUCCCUUGUGUCCAUAUUUAAUGUGUAAGAACAUCCCUACUCUAUCCCAGACACGACCAUUUCACCCAUUGCCCCA	0.742
GAACACCUACUGUGUGCCAGGCACUUUACAUCCCCCCCUCAGUGUCUACCUAGUCUGCUGGGCUGAUAGUGAAGCACCGAGGUUGAUGGACUUACAUUCCCAGUGUGCCU	0.483
CCCAGCUGUGGCGGGAGGUGCAGAGCAGAGGGCUUUAGGGAGCAGUGACUGCGGUCACCCCUUUAGUUCUCUGGGUGUAGACCACACCACCUCCCACUGGGCACCCCCCA	0.399
GGACACUUCACUGCCAUUUUCUAUUCACAUAAAAGAAAAAUAAAUGUGGAAAUUUCAUCCUUGGAAAUGUGUUCUCUAUUCUUUUUAAAUUUUCUGUAUGUAUAUGGAAA	0.68
CUGACAGAAUCCUAAGACGUGAGUUGCUCAUUGUAAAACUAGAAUGUGAAGUGAAGUCACGGAACAAGAUGCUGCUGUUGGGACCUUGAGACCAAAAUUUCAGAGCCCUU	0.298
AGAACCAGUGAGUGGUGAGAGCUCUGUCAGUGACAAACACUCCUUUGGCCUGUUGAAUUUGCUGAAGAACAUCACCUAAAGUCUGCACACGAGCCCAUUUUUACCAAGAU	0.213
AAAUCUGGCUGCCCGUUUACUUUCUGAGCAAGCACUGGAGUCCACUCCGACCUUUUUCUUUGAACAUGCAUGCUGCUGGAAUAUGUAUAAAUCAGAACUAGCAGAAGUAG	1.55
CCGUCUCUGUCCAUGCACCUCGAUUCACGGCGAGACAUUUAGCCACCACUCUCUGCGUAUUGAUGGCAUGAUACGGUAUUGUCCUCGUAUAGAGUUAACAACUUACGAUA	0.471
